Measured values of several laboratories.
Numbers after ± are the reported error.

O=[N+]([O-])c1ccc(-n2nc(-c3ccc(F)cc3)cc2-c2ccc(F)cc2)c([N+](=O)[O-])c1  CC50 (Neuro2a; MTT; 48 h): ~75 µM
COc1ccccc1-c1ccc(OCCc2cccc(F)c2)c(C(N)=O)c1  CC50 (HepG2; galactose medium; 3 (unit not given)): 28 ± 17 µM
Nc1nc(Nc2ccc(Cl)c(Cl)c2)nn1S(=O)(=O)c1ccc2ccccc2c1  CC50 (African green monkey cells): 3.4 µM
Cc1ccc(-c2cc(-c3ccc(F)cc3)nn2-c2ccc([N+](=O)[O-])cc2[N+](=O)[O-])cc1  CC50 (Neuro2a; MTT; 48 h): ~1 µM
Nc1nc(Nc2ccc(Cl)cc2)nn1S(=O)(=O)c1ccc2ccccc2c1  CC50 (Vero 76): 25 µM
CN(C)S(=O)(=O)c1ccc2c(c1)N(CCCN1CCC(CCO)CC1)c1ccccc1S2  CC50 (African green monkey cells; 5 days): 7.33 µM
C[C@H](NC(=O)Cc1cc(F)cc(F)c1)C(=O)N[C@@H]1C(=O)N(C)c2ccccc2-c2ccccc21  CC50 (MEF; cell viability, CellTiter-Glo; 48 h, uninfected): 48.5 µM
CC(C)CC(NC(=O)OCc1ccccc1)C(=O)NC(CC1CCNC1=O)C(=O)C(=O)NC1CC1 (stereo not shown)  CC50 (HCT-8; 5 (unit not given)): > 250 µM
O=[N+]([O-])c1ccc(-n2nc(-c3ccc(F)cc3)cc2-c2ccc(Cl)cc2)c([N+](=O)[O-])c1  CC50 (Neuro2a; MTT; 48 h): ~1 µM
CC[C@H](C)[C@@H]1NC(=O)[C@@H]([C@@H](C)CC)NC(=O)[C@@H]([C@@H](C)CC)NC(=O)[C@@H](C)N(C)C(=O)[C@H](C)N(C)C(=O)[C@H](CC(C)C)NC(=O)[C@H](Cc2ccccc2)N(C)C1=O  CC50 (HCT-116; cell viability, CellTiter-Glo ATP; 72 h): > 10 µM
NC(=O)c1cc(C(F)F)ccc1OCCc1cccc(F)c1  CC50 (HepG2; 3 (unit not given), human): 43 ± 1 µM
COc1ccc(NN2CCCC3(C2)Nc2cccnc2N=C3NC2CCCC2)c(C)c1 (stereo not shown)  CC50 (African green monkey cells; 72 (unit not given)): > 70 µM
CC[C@H](C)[C@H]1NC(=O)[C@@H](C)N(C)C(=O)[C@H](C)N(C)C(=O)[C@H](CC(C)C)NC(=O)[C@H](CC(C)C)N(C)C(=O)[C@H](C)N(C)C(=O)[C@@H]([C@@H](C)CC)NC1=O  CC50 (HCT-116; CellTiter-Glo ATP; 72 h, 0.1% DMSO): 0.1 ± 0.009 µM
C[C@H](NC(=O)[C@@H](O)c1cc(F)cc(F)c1)C(=O)N[C@@H]1C(=O)N(C)c2ccccc2-c2ccccc21  CC50 (Raji DC-SIGN; cell viability, CellTiter-Glo; 48 h, uninfected): 242 µM
CC(C)C[C@@H]1NC(=O)[C@H](Cc2ccccc2)N(C)C(=O)[C@H](C(C)C)NC(=O)[C@@H](C(C)C)NC(=O)[C@@H](C(C)C)NC(=O)[C@@H](Cc2ccccc2)N(C)C(=O)[C@H](C)N(C)C1=O  CC50 (HCT-116; cell viability, CellTiter-Glo ATP; 72 h): > 10 µM
NC(=O)c1cc(-c2cccnc2)ccc1OCCc1cccc(F)c1  CC50 (HepG2; galactose medium; 3 (unit not given)): 49 ± 2 µM

Excerpt of the above:
COc1ccc(NN2CCCC3(C2)Nc2cccnc2N=C3NC2CCCC2)c(C)c1 (stereo not shown)  CC50 (African green monkey cells; 72 (unit not given)): > 70 µM
NC(=O)c1cc(-c2cccnc2)ccc1OCCc1cccc(F)c1  CC50 (HepG2; galactose medium; 3 (unit not given)): 49 ± 2 µM
